Results gathered from unrelated publications.
Parts stem from different laboratories: compare values within a part only.
UniProt Q16566, sequence (whole entry, looked up): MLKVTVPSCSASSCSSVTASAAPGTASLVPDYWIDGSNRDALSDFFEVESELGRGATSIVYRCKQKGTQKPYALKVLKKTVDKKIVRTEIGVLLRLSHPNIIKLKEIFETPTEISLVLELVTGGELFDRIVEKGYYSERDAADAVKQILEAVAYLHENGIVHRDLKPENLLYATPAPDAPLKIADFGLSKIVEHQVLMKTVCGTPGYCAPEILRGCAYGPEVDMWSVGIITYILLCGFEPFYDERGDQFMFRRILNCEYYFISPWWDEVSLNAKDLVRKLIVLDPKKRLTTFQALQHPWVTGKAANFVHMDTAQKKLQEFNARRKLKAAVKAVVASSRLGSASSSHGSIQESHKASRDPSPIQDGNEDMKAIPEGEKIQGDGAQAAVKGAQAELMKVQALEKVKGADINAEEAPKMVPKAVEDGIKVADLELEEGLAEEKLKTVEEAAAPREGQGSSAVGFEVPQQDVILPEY
UniProt P29376, sequence (whole entry, looked up): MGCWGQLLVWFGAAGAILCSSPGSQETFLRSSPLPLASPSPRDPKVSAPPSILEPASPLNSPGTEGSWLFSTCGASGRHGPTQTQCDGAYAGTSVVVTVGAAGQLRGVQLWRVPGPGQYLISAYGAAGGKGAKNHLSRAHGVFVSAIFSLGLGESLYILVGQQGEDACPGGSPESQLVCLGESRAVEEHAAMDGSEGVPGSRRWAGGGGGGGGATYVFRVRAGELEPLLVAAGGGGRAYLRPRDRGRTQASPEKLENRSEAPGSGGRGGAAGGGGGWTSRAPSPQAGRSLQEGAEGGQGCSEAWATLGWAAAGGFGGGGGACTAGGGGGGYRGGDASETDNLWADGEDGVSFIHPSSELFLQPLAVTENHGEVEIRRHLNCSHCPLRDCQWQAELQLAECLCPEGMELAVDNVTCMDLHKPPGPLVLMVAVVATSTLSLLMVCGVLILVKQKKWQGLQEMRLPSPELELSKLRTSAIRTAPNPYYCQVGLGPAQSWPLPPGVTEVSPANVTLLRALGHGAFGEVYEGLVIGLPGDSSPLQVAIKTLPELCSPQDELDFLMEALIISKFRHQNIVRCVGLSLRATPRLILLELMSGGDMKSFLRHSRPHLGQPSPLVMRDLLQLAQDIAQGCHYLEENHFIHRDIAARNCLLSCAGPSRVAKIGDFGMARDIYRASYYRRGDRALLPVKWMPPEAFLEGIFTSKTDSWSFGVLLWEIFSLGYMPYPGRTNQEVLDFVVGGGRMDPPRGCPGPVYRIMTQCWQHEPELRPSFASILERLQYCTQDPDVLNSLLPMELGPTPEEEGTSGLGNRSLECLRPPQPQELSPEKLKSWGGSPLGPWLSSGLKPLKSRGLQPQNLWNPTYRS
UniProt P35968, sequence (whole entry, looked up): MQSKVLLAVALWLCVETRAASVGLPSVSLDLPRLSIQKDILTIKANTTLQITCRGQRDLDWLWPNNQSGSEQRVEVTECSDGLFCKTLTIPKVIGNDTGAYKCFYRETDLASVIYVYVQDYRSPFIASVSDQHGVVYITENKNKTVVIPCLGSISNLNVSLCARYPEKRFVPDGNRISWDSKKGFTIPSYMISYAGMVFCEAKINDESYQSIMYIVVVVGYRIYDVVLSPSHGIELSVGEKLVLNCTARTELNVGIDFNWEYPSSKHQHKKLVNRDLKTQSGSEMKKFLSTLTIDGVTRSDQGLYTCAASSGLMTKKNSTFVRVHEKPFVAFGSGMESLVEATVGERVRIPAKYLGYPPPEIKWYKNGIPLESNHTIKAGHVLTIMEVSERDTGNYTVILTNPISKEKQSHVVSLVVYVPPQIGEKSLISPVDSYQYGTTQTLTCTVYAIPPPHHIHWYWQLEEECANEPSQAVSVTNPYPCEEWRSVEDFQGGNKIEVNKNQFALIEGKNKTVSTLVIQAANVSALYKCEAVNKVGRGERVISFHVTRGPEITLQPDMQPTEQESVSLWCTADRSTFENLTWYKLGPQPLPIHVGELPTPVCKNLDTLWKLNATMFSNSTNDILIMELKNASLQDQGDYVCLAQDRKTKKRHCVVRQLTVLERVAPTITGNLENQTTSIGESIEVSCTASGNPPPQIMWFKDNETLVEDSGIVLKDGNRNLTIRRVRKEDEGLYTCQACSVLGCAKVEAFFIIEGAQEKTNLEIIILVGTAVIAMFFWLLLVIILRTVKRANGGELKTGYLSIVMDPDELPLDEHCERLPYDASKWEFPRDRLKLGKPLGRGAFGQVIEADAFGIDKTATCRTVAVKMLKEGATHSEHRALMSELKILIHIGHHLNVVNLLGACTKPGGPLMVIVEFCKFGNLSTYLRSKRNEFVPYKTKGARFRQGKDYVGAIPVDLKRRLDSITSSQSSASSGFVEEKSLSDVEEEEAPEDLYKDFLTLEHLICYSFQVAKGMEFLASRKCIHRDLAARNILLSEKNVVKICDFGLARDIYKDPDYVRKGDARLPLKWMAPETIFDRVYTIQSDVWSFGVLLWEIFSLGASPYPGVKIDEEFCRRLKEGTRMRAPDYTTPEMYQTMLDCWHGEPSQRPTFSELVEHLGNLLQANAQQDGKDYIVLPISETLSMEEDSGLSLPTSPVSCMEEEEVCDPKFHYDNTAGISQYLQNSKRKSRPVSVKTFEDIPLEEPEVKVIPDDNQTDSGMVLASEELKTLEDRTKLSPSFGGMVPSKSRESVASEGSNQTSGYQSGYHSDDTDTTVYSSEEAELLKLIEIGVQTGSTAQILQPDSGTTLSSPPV
UniProt Q9Y5S2, sequence (whole entry, looked up): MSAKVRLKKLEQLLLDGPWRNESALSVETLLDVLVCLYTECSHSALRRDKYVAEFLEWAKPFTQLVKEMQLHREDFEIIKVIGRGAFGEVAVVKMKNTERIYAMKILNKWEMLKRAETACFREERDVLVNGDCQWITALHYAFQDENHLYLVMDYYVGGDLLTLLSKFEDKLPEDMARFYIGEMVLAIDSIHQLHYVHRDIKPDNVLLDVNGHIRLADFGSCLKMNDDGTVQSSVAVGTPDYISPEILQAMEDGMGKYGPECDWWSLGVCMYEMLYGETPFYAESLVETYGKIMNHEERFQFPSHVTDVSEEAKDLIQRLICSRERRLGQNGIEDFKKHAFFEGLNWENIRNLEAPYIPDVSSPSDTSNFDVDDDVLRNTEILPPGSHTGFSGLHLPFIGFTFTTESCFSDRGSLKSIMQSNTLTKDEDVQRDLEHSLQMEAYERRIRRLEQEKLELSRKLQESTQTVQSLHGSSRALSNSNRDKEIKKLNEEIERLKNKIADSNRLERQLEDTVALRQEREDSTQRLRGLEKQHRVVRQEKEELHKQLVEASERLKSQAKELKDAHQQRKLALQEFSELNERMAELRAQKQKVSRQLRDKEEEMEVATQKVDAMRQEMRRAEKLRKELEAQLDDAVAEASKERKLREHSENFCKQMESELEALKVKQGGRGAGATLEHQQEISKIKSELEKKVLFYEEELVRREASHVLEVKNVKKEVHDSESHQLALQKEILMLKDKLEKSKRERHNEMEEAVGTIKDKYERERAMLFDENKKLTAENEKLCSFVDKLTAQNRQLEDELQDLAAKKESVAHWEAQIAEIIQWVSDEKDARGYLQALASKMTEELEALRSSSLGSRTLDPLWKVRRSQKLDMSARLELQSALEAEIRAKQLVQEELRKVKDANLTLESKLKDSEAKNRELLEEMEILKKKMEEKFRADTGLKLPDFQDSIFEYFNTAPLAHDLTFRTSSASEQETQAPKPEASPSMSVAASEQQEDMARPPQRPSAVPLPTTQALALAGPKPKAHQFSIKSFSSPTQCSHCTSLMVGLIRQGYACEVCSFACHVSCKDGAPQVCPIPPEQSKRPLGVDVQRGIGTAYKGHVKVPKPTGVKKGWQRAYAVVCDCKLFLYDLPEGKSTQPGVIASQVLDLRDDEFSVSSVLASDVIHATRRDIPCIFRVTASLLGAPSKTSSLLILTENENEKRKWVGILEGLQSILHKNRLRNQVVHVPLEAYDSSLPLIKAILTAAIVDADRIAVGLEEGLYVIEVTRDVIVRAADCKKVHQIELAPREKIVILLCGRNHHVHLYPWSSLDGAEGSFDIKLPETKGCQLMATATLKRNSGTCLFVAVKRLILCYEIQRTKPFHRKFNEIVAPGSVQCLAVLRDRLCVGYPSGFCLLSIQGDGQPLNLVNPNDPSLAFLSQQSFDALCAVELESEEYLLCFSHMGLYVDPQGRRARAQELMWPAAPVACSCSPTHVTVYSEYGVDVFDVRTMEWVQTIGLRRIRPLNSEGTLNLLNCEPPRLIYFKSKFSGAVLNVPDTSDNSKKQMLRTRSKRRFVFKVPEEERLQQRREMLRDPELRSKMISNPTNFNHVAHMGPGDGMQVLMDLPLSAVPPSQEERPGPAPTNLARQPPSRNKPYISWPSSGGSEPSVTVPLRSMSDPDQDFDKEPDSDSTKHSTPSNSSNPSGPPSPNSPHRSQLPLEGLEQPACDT
UniProt O43293, sequence (whole entry, looked up): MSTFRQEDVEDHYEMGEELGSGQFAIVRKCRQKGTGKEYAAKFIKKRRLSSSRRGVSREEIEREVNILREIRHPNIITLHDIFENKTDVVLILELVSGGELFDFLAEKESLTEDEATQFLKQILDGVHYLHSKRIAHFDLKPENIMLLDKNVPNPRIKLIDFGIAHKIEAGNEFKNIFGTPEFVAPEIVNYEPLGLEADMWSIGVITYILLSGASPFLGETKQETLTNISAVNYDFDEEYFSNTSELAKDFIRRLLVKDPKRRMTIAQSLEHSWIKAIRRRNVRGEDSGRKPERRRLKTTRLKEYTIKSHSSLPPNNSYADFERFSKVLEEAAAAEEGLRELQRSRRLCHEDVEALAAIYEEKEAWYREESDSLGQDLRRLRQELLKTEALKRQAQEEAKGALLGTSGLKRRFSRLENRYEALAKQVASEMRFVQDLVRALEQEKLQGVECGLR

Study 1
Compound: N#C/C(=C\c1ccc(O)c(O)c1)C(=O)NCc1ccccc1
Observed: enzyme activity
Mode: inhibitor
Tested at: 0.5 µM
Reference: control
Endpoint: remaining activity
target = GRK4 (Homo sapiens, UniProt P32298); result = 101%
target = CLK4 (Homo sapiens, UniProt Q9HAZ1); result = 94%
target = MAPK14 (Homo sapiens, UniProt Q16539); result = 108%
target = MINK1 (Homo sapiens, UniProt Q8N4C8); result = 97.9%
target = MAPK1 (Homo sapiens, UniProt P28482); result = 92.2%
target = CAMK4 (Homo sapiens, UniProt Q16566); result = 97%
target = KDR (Homo sapiens, UniProt P35968); result = 95.8%
target = CDC42BPB (Homo sapiens, UniProt Q9Y5S2); result = 103%
target = Myosin-IIIb (MYO3B, Homo sapiens, UniProt Q8WXR4); result = 88.3%
target = MAPK11 (Homo sapiens, UniProt Q15759); result = 98.7%
target = ROCK1 (Homo sapiens, UniProt Q13464); result = 99.7%
target = AKT2 (Homo sapiens, UniProt P31751); result = 98.4%
target = TLK2 (Homo sapiens, UniProt Q86UE8); result = 105%

Study 2
Compound: O=C(Nc1ccc(Oc2ccc(F)cc2)cc1)N1CCc2ncccc2[C@H]1c1ccc(F)cc1
Observed: cell-free assay
Method: competition with immobilised ligand
Tested at: 1 µM
Endpoint: remaining binding
target = ERBB4 (Homo sapiens, UniProt Q15303); result = 82%
target = PKN2 (Homo sapiens, UniProt Q16513); result = 80%
target = LTK (Homo sapiens, UniProt P29376); result = 86%
target = FLT3 (Homo sapiens, UniProt P36888, ITD); result = 99%
target = CAMK4 (Homo sapiens, UniProt Q16566); result = 86%
target = CLK2 (Homo sapiens, UniProt P49760); result = 95%
target = RIPK4 (Homo sapiens, UniProt P57078); result = 84%
target = GAK (Homo sapiens, UniProt O14976); result = 89%
target = FLT3 (Homo sapiens, UniProt P36888, D835V); result = 96%
target = CDK2 (Homo sapiens, UniProt P24941); result = 90%
target = EGFR (Homo sapiens, UniProt P00533, L858R/T790M); result = 71%
target = STK32A (Homo sapiens, UniProt Q8WU08); result = 100%
target = Aurora kinase A (AURKA, Homo sapiens, UniProt O14965); result = 100%
target = DAPK3 (Homo sapiens, UniProt O43293); result = 100%
target = PRKX (Homo sapiens, UniProt P51817); result = 88%

Study 3
Target: Protein C-ets-1 (ETS1, Homo sapiens, UniProt P14921, residues 1-441, K379A, full length assumed)
Method: protein-binding microarray
Molecule type: double-stranded DNA, one strand shown
Medium: in vitro
Tested at: not given
Setting: k-mer, scored over probes, only values ≥0.25
Direction: higher = stronger binding
Endpoint: E-score
Residues (chain): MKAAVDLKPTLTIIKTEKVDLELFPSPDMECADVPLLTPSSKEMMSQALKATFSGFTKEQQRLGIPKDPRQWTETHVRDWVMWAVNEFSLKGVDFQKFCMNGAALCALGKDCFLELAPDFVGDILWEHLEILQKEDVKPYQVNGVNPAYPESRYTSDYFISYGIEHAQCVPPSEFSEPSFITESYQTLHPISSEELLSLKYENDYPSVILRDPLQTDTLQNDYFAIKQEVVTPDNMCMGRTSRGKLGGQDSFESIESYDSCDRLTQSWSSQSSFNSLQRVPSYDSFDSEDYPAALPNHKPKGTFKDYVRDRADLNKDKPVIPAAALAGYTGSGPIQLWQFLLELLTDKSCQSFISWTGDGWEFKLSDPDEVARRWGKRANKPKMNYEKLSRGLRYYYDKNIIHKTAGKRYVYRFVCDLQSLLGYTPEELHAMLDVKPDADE
Strand = ATATGTGG; result = 0.258
Strand = TCCGGAAA; result = 0.341
Strand = GGGTATAC; result = 0.272
Strand = CTTCCGGA; result = 0.371
Strand = CGGTATAG; result = 0.304
Strand = ATACAATA; result = 0.287
Strand = AACCGGAA; result = 0.457
Strand = AAACCCCG; result = 0.268

Further values, each from its own experiment
Molecule = PhoQ, residues 284 288 289 292 302 303 TLMATV; target = PhoP, residues 12 14 15 18 19 TQAIL (Escherichia coli, UniProt P23836); test = Sort-seq, refers to: YFP reporter; system = E. coli; conditions = PhoQ-PhoP variant library, together with: 10 µM Mg2+; how to read = reference: high Mg2+ state, higher = stronger signaling; endpoint = fold induction; result = 2.1
